Assay results pooled from the literature.
A part holds a random share of what one study measured. Values joined by “and” are separate records of one study, mostly repeats; a detail may differ.
UniProt Q9UQM7, sequence (whole entry, looked up): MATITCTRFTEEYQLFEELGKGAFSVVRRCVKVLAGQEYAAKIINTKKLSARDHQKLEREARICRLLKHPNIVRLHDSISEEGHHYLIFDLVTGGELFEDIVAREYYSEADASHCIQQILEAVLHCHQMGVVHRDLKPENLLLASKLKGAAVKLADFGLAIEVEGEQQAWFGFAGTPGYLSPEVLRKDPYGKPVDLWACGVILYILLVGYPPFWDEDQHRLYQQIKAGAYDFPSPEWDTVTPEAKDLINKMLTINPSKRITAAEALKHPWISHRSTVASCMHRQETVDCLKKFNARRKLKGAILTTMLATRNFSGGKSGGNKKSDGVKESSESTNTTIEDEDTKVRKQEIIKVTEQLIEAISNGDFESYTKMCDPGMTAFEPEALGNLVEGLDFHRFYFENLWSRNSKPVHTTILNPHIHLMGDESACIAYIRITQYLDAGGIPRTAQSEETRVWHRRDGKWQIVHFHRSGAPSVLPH

Set 1 — observed: RNA clamping; method: fluorescence polarization; tested at: concentration not given; added: FAM-labelled poly r(AG)8 RNA
Target: Eukaryotic initiation factor 4A-III (Homo sapiens, UniProt P38919)
UniProt P38919, sequence (whole entry, looked up): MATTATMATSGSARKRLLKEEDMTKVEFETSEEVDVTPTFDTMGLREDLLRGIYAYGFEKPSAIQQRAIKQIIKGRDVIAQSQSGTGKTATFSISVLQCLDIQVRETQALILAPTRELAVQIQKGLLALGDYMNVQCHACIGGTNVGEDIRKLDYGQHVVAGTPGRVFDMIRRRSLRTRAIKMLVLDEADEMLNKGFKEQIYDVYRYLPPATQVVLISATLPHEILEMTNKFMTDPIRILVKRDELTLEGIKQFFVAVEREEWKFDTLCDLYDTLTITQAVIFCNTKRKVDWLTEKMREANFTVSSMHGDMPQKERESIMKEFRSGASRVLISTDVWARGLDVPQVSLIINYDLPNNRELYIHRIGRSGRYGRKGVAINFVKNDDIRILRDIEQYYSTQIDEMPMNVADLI
COC(=O)[C@@H]1[C@@H](c2ccccc2)[C@]2(c3ccc(OC)cc3)Oc3cc(OC)cc(OC)c3[C@@]23N=C(C)N[C@@]13O: “fluorescence polarization change” 64.9 mP and 60 mP.
Under “fluorescence polarization change”, COc1ccc([C@@]23Oc4cc(OC)cc(OC)c4[C@]2(O)[C@@H](O)C[C@H]3c2ccccc2)cc1 is recorded as 12.8 mP.
For COC(=O)[C@@H]1[C@@H](c2ccccc2)[C@]2(c3ccc(OC)cc3)Oc3cc(OC)cc(OC)c3[C@@]23OC(c2ccc(OC)cc2)=N[C@@]13O, “fluorescence polarization change” read -0.7 mP.
COC(=O)[C@@H]1[C@@H](c2ccccc2)[C@]2(c3ccc(OC)cc3)Oc3cc(OC)cc(OC)c3[C@@]23OC(c2ccc(Cl)cc2)=N[C@@]13O — result for “fluorescence polarization change”: 4.6 mP.

Set 2 — organism: Plasmodium berghei; mode: inhibitor; cell line: Huh-7; strain: GFP-expressing sporozoites, liver stage; tested at: 10 µM; time: 24 h; baseline: untreated control
For O=C1CCO1, the infection rate was 91.2%.
With CCCC(C)(COC(N)=O)COC(=O)NC(C)C (stereo not drawn) the infection rate was 109%.
With COC(=O)C1=CCCN(C)C1 the infection rate was 99.2%.
CCC1(c2ccc(N)cc2)CCC(=O)NC1=O (stereo not drawn) has an infection rate of 91.7%.
For C[C@]12CCC(=O)C=C1C=C[C@@H]1[C@@H]2CC[C@@]2(C)[C@H]1CC[C@@]2(O)CCC(=O)O, the infection rate was 576%.

Set 3 — observed: binding; method: radioligand binding; tested at: 10 µM
Target: Muscarinic acetylcholine receptor M1 (CHRM1, Homo sapiens, UniProt P11229)
UniProt P11229, sequence (whole entry, looked up): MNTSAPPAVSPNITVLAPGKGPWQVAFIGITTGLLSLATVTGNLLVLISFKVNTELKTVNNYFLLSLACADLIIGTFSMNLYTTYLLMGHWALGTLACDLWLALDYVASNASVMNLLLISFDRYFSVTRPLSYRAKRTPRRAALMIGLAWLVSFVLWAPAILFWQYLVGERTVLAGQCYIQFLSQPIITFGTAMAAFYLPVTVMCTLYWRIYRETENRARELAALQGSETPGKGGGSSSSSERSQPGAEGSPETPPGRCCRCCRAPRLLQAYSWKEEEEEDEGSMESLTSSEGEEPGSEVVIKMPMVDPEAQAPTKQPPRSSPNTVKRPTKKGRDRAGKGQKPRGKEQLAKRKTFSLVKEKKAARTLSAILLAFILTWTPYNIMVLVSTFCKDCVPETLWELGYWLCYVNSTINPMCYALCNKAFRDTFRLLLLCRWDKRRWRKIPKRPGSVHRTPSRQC
CCOC(=O)c1cc2cc(-c3cc(C(=O)NCc4ccc(C(=O)O)cc4)nn3C)ccc2[nH]1 has an inhibition of -17.4%.
The inhibition of CC(=O)c1c(NS(C)(=O)=O)c2cc(-c3ccc(Cl)cc3)c(-c3ccc(Cl)cc3Cl)nc2n(C)c1=O is reported as 3.28%.
For O=C(Nc1cccnn1)N1CCC(=Cc2cccc(Oc3ccc(C(F)(F)F)cn3)c2)CC1, the inhibition was 29.5%.
O=C(NC[C@@H]1[C@H]2CN(C(=O)OCc3cc(C(F)(F)F)cc(C(F)(F)F)c3)C[C@@H]12)c1ccc2[nH]nnc2c1 has an inhibition of -2.87%.
CNC(=O)c1ccc(Nc2ncc(C(F)(F)F)c(NCc3nccnc3N(C)S(C)(=O)=O)n2)cc1 gave an inhibition of 19.3%.
O=C1c2ccc(Nc3ccc(F)cc3F)cc2CCc2ccc(OC[C@H](O)CO)cc21 gave an inhibition of 45.5%.
The inhibition of C[C@@]1(Cc2ccc(C#N)cc2)C(=O)N(c2cc(Cl)cc(Cl)c2)c2ncc(C(=O)NC3(c4nc(C5CCC5)no4)CC3)n21 is reported as -8.37%.
C[C@H](NC(=O)c1cnc2n1[C@](C)(Cc1ccc(C#N)cc1)C(=O)N2c1cc(Cl)c(F)c(Cl)c1)C(=O)NC1(c2ccccn2)CC1 has an inhibition of -11.7%.
The inhibition of CC1=C(C#N)C(c2ccc3c(c2)c(NC(=O)c2ccccc2C)nn3C)C(C#N)=C(C)N1 is reported as -1.37%.
For Cc1nc(Cc2cccc(C(F)(F)F)c2)sc1-c1ccc(C(N)=O)nc1, the inhibition was 10%.
For Cc1cc(-n2nc(Cc3cc(F)cc(C(F)(F)F)c3)nc2C)ccc1C(N)=O, the inhibition was -7.57%.
With CC1=C(C#N)[C@@H](c2ccc3[nH]nc(C)c3c2)C(C#N)=C(c2ccc(Cl)cc2)N1 the inhibition was 8.17%.
For Cc1c(N2CCCC2)nc2ccc(Br)cc2c1C(=O)NC[C@H](CCC(=O)O)c1ccccc1Cl, the inhibition was 14.3%.
O=C1CCc2cc(Nc3cc(OC4CCOCC4)c([N+](=O)[O-])cc3Cl)ccc2N1 gave an inhibition of -4.43%.
COc1cccc(CNC(=O)c2nc3scc(COCc4ccc(C(=O)O)cc4)c3c(=O)[nH]2)c1 gave an inhibition of 53.4%.
With CN1C(=O)[C@@H](N2CCc3cn(Cc4ccccc4)nc3C2=O)COc2ccccc21 the inhibition was 0.6%.

Set 4 — organism: Sarcocystis neurona; observed: parasite growth; tested at: 10 µM; time: 96 h; setting: first screen
For C=C1C[C@@H]2[C@H](CC[C@]3(C)C(=O)CC[C@@H]23)[C@@]2(C)C=CC(=O)C=C12, the inhibition was 10.8%.
For O=C1CN=C(c2ccccc2)c2cc([N+](=O)[O-])ccc2N1, the inhibition was 7.4%.
For NC(=O)C[S+]([O-])C(c1ccccc1)c1ccccc1 (stereo not drawn), the inhibition was -14.9%.
C[C@]12C/C(=C/O)C(=O)C[C@@H]1CC[C@@H]1[C@@H]2CC[C@@]2(C)[C@H]1CC[C@]2(C)O has an inhibition of 10.6%.
CN1C(=O)CN=C(c2ccccc2)c2cc([N+](=O)[O-])ccc21 gave an inhibition of 2%.

Mixed results
ADRB1: Beta-1 adrenergic receptor (ADRB1, Homo sapiens, UniProt P08588)
UniProt P08588, sequence (whole entry, looked up): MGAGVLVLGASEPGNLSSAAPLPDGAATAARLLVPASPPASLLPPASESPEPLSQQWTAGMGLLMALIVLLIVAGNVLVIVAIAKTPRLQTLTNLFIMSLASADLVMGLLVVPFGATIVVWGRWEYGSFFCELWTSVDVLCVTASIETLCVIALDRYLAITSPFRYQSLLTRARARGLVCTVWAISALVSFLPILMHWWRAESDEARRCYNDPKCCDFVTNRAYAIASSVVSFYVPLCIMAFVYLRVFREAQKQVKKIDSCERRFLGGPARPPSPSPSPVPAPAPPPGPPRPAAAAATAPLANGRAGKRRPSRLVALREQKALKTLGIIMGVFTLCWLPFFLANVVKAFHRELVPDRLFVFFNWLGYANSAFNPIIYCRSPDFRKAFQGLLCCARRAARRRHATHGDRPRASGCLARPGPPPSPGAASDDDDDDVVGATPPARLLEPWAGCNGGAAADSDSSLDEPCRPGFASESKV
For CC1=C(C)C(=O)O[C@H]([C@](C)(O)C2(O)CC[C@@]3(O)[C@@H]4CC=C5CC=CC(=O)[C@]5(C)C4CC[C@]23C)C1 (stereo partly drawn), the EC50 was 35.5 µM (ADRB1; agonist).
c1cncc([C@@H]2CCCCN2)c1 has an inhibition of 5% (CAMK2A (Homo sapiens, UniProt Q9UQM7); enzyme activity, inhibitor; 10 µM).
With c1cc(N2CCNCC2)c2cc[nH]c2c1 the EC50 was no less than 100 µM (ADRB1; agonist).

A few entries again (set 3):
The inhibition of CC(=O)c1c(NS(C)(=O)=O)c2cc(-c3ccc(Cl)cc3)c(-c3ccc(Cl)cc3Cl)nc2n(C)c1=O is reported as 3.28%.
The inhibition of C[C@@]1(Cc2ccc(C#N)cc2)C(=O)N(c2cc(Cl)cc(Cl)c2)c2ncc(C(=O)NC3(c4nc(C5CCC5)no4)CC3)n21 is reported as -8.37%.
For Cc1c(N2CCCC2)nc2ccc(Br)cc2c1C(=O)NC[C@H](CCC(=O)O)c1ccccc1Cl, the inhibition was 14.3%.
COc1cccc(CNC(=O)c2nc3scc(COCc4ccc(C(=O)O)cc4)c3c(=O)[nH]2)c1 gave an inhibition of 53.4%.
The inhibition of CC1=C(C#N)C(c2ccc3c(c2)c(NC(=O)c2ccccc2C)nn3C)C(C#N)=C(C)N1 is reported as -1.37%.
